Measurements gathered from unrelated publications.
Each line is one published result; not all experiments were run side by side. Values joined by “and” are separate records of one study, mostly repeats; a detail may differ. Numbers after ± are the reported error.

C[C@]1(O)C[C@@](N)(c2ccc(-c3nc4n(c3-c3ccccc3)COc3ccncc3-4)cc2)C1
patients with Dyspnea TEAE (human, advanced or metastatic solid tumours; dose not given, all patients, any grade): 11.8%

CC[C@H](C)[C@H](NC(=O)[C@H](Cc1ccccc1)NC(=O)[C@H](CCC(=O)O)NC(=O)[C@H](CCCNC(=N)N)NC(=O)[C@H](C)NC(=O)[C@H](C)NC(=O)[C@H](CCC(N)=O)NC(=O)[C@H](CCC(=O)O)NC(=O)[C@H](CCC(=O)O)NC(=O)[C@H](CC(C)C)NC(=O)[C@H](Cc1ccc(O)cc1)NC(=O)[C@H](CO)NC(=O)[C@H](CO)NC(=O)[C@@H](NC(=O)[C@H](CC(=O)O)NC(=O)[C@H](CO)NC(=O)[C@@H](NC(=O)[C@H](Cc1ccccc1)NC(=O)[C@@H](NC(=O)CNC(=O)[C@H](CCC(=O)O)NC(=O)[C@H](C)NC(=O)CCc1cnc[nH]1)[C@@H](C)O)[C@@H](C)O)C(C)C)C(=O)N[C@@H](C)C(=O)N[C@@H](Cc1c[nH]c2ccccc12)C(=O)N[C@@H](CC(C)C)C(=O)N[C@H](C(=O)N[C@@H](CCCNC(=N)N)C(=O)NCC(=O)N[C@@H](CCCNC(=N)N)C(=O)N[C@@H](CCCCNC(=O)COCCOCCNC(=O)COCCOCCNC(=O)CC[C@H](NC(=O)CCCCCCCCCCCCCCCCC(=O)O)C(=O)O)C(=O)NCC(=O)NCC(=O)N[C@@H](CO)C(=O)N[C@@H](CCCCNC(=O)[C@H](CCCCNC(=O)[C@H](CCCCNc1c(NCCCCCN(O)C(=O)CCC(=O)NCCCCCN(O)C(=O)CCC(=O)NCCCCCN(O)C(C)=O)c(=O)c1=O)Nc1c(NCCCCCN(O)C(=O)CCC(=O)NCCCCCN(O)C(=O)CCC(=O)NCCCCCN(O)C(C)=O)c(=O)c1=O)NC(=O)[C@H](CCCCNc1c(NCCCCCN(O)C(=O)CCC(=O)NCCCCCN(O)C(=O)CCC(=O)NCCCCCN(O)C(C)=O)c(=O)c1=O)Nc1c(NCCCCCN(O)C(=O)CCC(=O)NCCCCCN(O)C(=O)CCC(=O)NCCCCCN(O)C(C)=O)c(=O)c1=O)C(=O)O)C(C)C [zirconium-89 labelled]
tissue uptake (ex vivo gamma counting; male Sprague-Dawley rats, kidney; intravenous, 1 nmol, 24 h): 16.9 %ID/g

COc1ncccc1-c1cnn2ccc(N3CCN(C(=O)OC(C)C)CC3)nc12
concentration (mouse SNL model, plasma; oral, 30 mg/kg, 30 min): 8.2 µM

N[C@@H]1c2ccccc2OC12CCN(c1cnc3c(N4CCCc5ncccc54)n[nH]c3n1)CC2
AST increased AE incidence (phase Ia; patients advanced metastatic solid tumours; oral, dose not given, all doses, any relationship): 21%

Cn1cc(-c2nc(N[C@@H]3CCCC[C@@H]3N)c(F)c3c2C(=O)NC3)cn1
hemorrhagic adverse events (measured: any bleeding; patients with relapsed or refractory AML; oral, 60 mg twice daily): 63%

COc1cccc(Oc2ccccc2NC(=O)CNC(=O)c2cccc3ccccc23)c1
hematocrit (esterase-deficient SCID mice, male, blood; oral, 100 mg/kg/day, 14 days, toxicity study): 48.7% and 46.1% and 44.9%

CCN1CCN(Cc2ccc(Nc3ncc(F)c(-c4cc(F)c5nc6n(c5c4)[C@H](C)CCC6)n3)nc2)CC1
blood bilirubin increased incidence (Phase Ia dose escalation; patients with advanced solid tumours; dose not given, monotherapy, any grade): 20.8%

CCN1[C@@H](C(=O)NC23CCC(C(=O)O)(CC2)CC3)[C@H](c2cccc(Cl)c2F)[C@]2(C(=O)Nc3cc(Cl)ccc32)C12CCCCC2
ALT elevation incidence (patients with advanced solid tumours; oral, 100 mg): 0%

O=C(O)CCCOc1ccc(F)cc1-c1cc(-c2ccccc2C(F)(F)F)n(-c2ccccc2)n1
pituitary weight (Crl:CD(SD) rat, female; intravenous, 25 µg/kg, 1 days post-dose): 15.7 ± 2 mg

C=C(CN(C(=O)c1c(C(F)F)nn(C)c1F)C1CC1)c1ccc(Cl)cc1Cl
mortality (static acute toxicity test; zebrafish (Brachydanio rerio); 0.833 mg a.i./L, 24 h): 0%

COc1ccc(-c2c(-c3ccc(C#N)c(F)c3)nc(N3CCC(N)CC3)n(C)c2=O)cc1F
treatment-related adverse event incidence (measured: Anemia; human patients; oral, dose not given, any grade, dose escalation, NG): 2%

O=S(=O)(Nc1ccccc1)c1ccc(NC(=S)Nc2ccccc2)cc1
blood chemistry level (measured: Ca; male mouse, blood; oral, 5 mg/kg daily, 14 days): 10.1 mg/dL

COc1ccnc(C(=O)N[C@H]2COC(=O)[C@H](Cc3ccccc3)[C@@H](OC(=O)C(C)C)[C@H](C)OC2=O)c1OCOC(=O)C(C)C
DT50 (field soil, loam; normalised, southern France): 7.8 days

COc1ccc2nc3cc(Cl)ccc3c(Nc3cc(CN4CCCC4)c(O)c(CN4CCCC4)c3)c2n1
white blood cell count (mouse, blood; intraperitoneal, 28 mg/kg): 8.66 10⁹/L

O=C1Nc2cc3[nH]nc(-c4ccncc4)c3cc2CN1Cc1ccccc1
patients with retinal detachment (CTCAE v4.03; human, relapsed or refractory advanced solid tumours; intravenous, 6.4 mg/kg): 11%

O=C(Nc1ccccc1)C1CCN(C(=O)Oc2cccnc2)CC1
adverse event Somnolence (healthy women; oral, 20 mg, 7 days): 0%

CC(=O)c1c(C)c2cnc(Nc3ccc(C4CCN(CCS(C)(=O)=O)CC4)cn3)nc2n(C2CCCC2)c1=O
clearance (human patients, plasma; oral, 75 mg twice daily, day 21 multiple doses, together with: fulvestrant): 1920 mL/min

Clc1ccc(-c2ccccc2)cc1
serum Potassium (rat Sprague-Dawley female, serum; inhalation, 35 µg/rat, 24 h): 4 ± 0.3 mmol/L

NC1(C(=O)N[C@@H](CCO)c2ccc(Cl)cc2)CCN(c2nc[nH]c3nccc2-3)CC1
incidence of Nausea (metastatic CRPC patients; 400 mg b.i.d., any grade, treatment-related, together with: enzalutamide 160 mg daily): 42.9%

CC(C)[C@@H]1NC(=O)CNC(=O)[C@H](CC(N)=O)NC(=O)[C@H](CCCNC(=N)N)NC(=O)[C@H](Cc2ccc(O)cc2)NC(=O)[C@H](C(C)C)NC(=O)[C@@H](NC(=O)[C@@H](NC(=O)[C@H](CC(N)=O)NC(=O)[C@H](Cc2c[nH]c3ccccc23)NC(=O)[C@H](C)NC(=O)[C@H](Cc2ccccc2)NC(=O)CN)C(C)C)CSSC[C@@H](C(=O)N[C@@H](Cc2cnc[nH]2)C(=O)N[C@@H](CCCNC(=N)N)C(=O)N[C@@H](CCCNC(=N)N)C(=O)N[C@@H](C)C(=O)N[C@@H](CC(N)=O)C(N)=O)NC(=O)[C@H](C(C)C)NC(=O)[C@H](CCCNC(=N)N)NC1=O
remaining peptide (HPLC; mouse mammary gland homogenate; 2560 µM, 10.00 h, 37 °C, 50 mg/mL tissue): 39.7% and 33.4% and 45.1%

C[C@@H](NC(=O)N1C(=O)[C@H](Cc2ccnc(N)c2)[C@H]1C(=O)O)C1CCCCC1
incidence of abnormal liver function (healthy adult Chinese volunteers; continuous intravenous infusion, 2.25 mg/kg/h, 5-day infusion, CTCAE 5.0 grading): 25%

C[C@]1(CO)Cc2ncn(-c3ccc(C#N)c(Cl)c3)c2C(=O)O1
any TEAE (human; 10 mg, European food-effect part, fasted): 25%

O[C@H]1CCCN[C@@H]1CCCn1cnc2c(Cl)c(Cl)ccc21
AUC(0-12 h) (human, UGT2B7 NN phenotype, plasma; oral, 150 mg, single dose): 751 ng·h/mL

O=C1OC[C@H]2OC(O)[C@H](O)[C@@H](O)[C@@H]2OC(=O)c2cc(O)c(O)c(O)c2-c2c(O)c(O)c3oc(=O)c4c(c(O)c(O)c5oc(=O)c2c3c54)-c2c1cc(O)c(O)c2O (mixture of isomers)
liver weight (subacute oral toxicity; BALB/c mice; oral, 1000 mg/kg/day, 28 days): 1.3 g

[O-][S+]1CCc2nc(N3CCC(c4ncc(Cl)cn4)CC3)nc(NC3(CO)CCC3)c21 (stereo not drawn)
adverse event incidence (measured: upper abdominal pain; healthy male humans; 12 mg twice daily): 0%

COc1cc2c(Oc3ccc4[nH]c(C)cc4c3F)ccnc2cc1OCC1(N)CC1
grade 3 Epistaxis (paediatric recurrent refractory sarcoma; concentration not given, whole group): 0%

NCCCC[C@@H]1NC(=O)[C@@H](Cc2c[nH]c3ccccc23)NC(=O)[C@H](c2ccccc2)NC(=O)[C@@H]2C[C@@H](OC(=O)NCCN)CN2C(=O)[C@H](Cc2ccccc2)NC(=O)[C@H](Cc2ccc(OCc3ccccc3)cc2)NC1=O
QTcI change from baseline (healthy volunteers; subcutaneous, 600 µg twice daily, day 5, 4.00 h): 6.1 ms

CO[C@H]1C[C@@H]2CC[C@@H](C)[C@@](O)(O2)C(=O)C(=O)N2CCCC[C@H]2C(=O)O[C@H]([C@H](C)C[C@@H]2CC[C@@H](OC(=O)NCCOCCOCCOCCOCCOCCOCCOCCOCCC(=O)N3CCc4cc(Cn5nc(-c6ccc7oc(N)nc7c6)c6c(N)ncnc65)ccc4C3)[C@H](OC)C2)C[C@@H](O)[C@H](C)/C=C(\C)[C@@H](O)[C@@H](OC)C(=O)[C@H](C)C[C@H](C)/C=C/C=C/C=C/1C
TRAE incidence (phase 1 dose escalation, measured: vomiting; advanced solid tumour patients; intravenous, 8 mg weekly, any grade): 25%

COc1ccc(CCC2CCCC(CCc3ccc(OC)cc3)N2C[C@@H](O)CO)cc1.Cl (stereo in doubt)
APD90 change (rabbit Purkinje fibres; 0.3 µM, cycle length 0.5 s; relative to: baseline): 27.9 ± 3.1%

CCc1ccc(CC/C=C/c2ccc3c(c2)C(=O)CC3)cc1
GGT serum activity (Sprague-Dawley rat, male; oral, 450 mg/kg/day, 14 days): 1.33 U/L

CC1(C)C(C=C(Cl)Cl)C1C(=O)OC(C#N)c1ccc(F)c(Oc2ccccc2)c1 (stereo not drawn)
enzyme contribution to clearance (measured: CYP3A4; human, age 5 years, recombinant human CYP3A4; 0.1 µM): 1.08%

C[C@@H]1NC(=O)[C@H](CCCCNC(=O)CO/N=C/C(=O)NCCCC[C@@H]2NC(=O)[C@@H](Cc3ccccc3)NC(=O)[C@H](CC(=O)O)NC(=O)CNC(=O)[C@H](CCCNC(=N)N)NC2=O)NC(=O)CNC(=O)[C@@H]2CCCN2C(=O)[C@H](CCCCNC(=O)CO/N=C/C(=O)NCCCC[C@@H]2NC(=O)[C@@H](Cc3ccccc3)NC(=O)[C@H](CC(=O)O)NC(=O)CNC(=O)[C@H](CCCNC(=N)N)NC2=O)NC(=O)[C@H](CCCCNC(=O)[C@H](CCCCN)NC(=O)[C@H](Cc2ccccc2)NC(=O)CNC(=O)CN2CCCNCCNCCCNCC2)NC(=O)[C@H](CCCCNC(=O)CO/N=C/C(=O)NCCCC[C@@H]2NC(=O)[C@@H](Cc3ccccc3)NC(=O)[C@H](CC(=O)O)NC(=O)CNC(=O)[C@H](CCCNC(=N)N)NC2=O)NC(=O)CNC(=O)[C@@H]2CCCN2C(=O)[C@H](CCCCNC(=O)CO/N=C/C(=O)NCCCC[C@@H]2NC(=O)[C@@H](Cc3ccccc3)NC(=O)[C@H](CC(=O)O)NC(=O)CNC(=O)[C@H](CCCNC(=N)N)NC2=O)NC1=O [copper-64 labelled]
tissue uptake (biodistribution after PET; mouse, U-87 MG tumour xenograft, blood; intravenous, 24 h): 0.09 ± 0.01 %ID/g

CC1(C)c2nc(-c3ccc(F)cc3)c(Nc3ccc(F)cc3)n2CCN1C(=O)CN
concentration at 24 h (NMRI mouse Plasmodium berghei-infected, blood; oral, 1 mg/kg, 24 h, monotherapy): 0.029 µM
